Measured values collected from several papers.
A part holds a random share of what one study measured. Changes are numbered by the printed parent chain.

Set 1
Target: UBE2D3 UBC core domain (UniProt P61077)
Technique: yeast two-hybrid
Sample: yeast
Notes: mostly zero background
Baseline: not given
Direction: higher = stronger interaction
B1: ZNF598 RING domain (UniProt Q86UK7); chain AAAPERGGGSCVLCCGDLEATALGRCDHPVCYRCSTKMRVLCEQRYCAVCREELRQVVFGK
B2: CUL9 RING domain (UniProt Q8IWT3); chain AQAVPVRPDHCPVCVSPLGCDDDLPSLCCMHYCCKSCWNEYLTTRIEQNLVLNCTCPIADCPAQPTGAFIR
Target sequence (chain): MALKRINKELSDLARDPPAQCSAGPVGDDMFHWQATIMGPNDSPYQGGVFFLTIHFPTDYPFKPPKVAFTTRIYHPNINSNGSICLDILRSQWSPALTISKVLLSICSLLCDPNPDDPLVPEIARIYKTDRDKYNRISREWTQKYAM
Sequence	lacZ reporter activity
QLQDIKEQTMCPVCLDRLKNMIFLCGHGTCQLCGDRMSECPICRKAIERRILLY (MIB1 RING domain (UniProt Q86YT6))	10500
B1 (ZNF598 RING domain)	0
FPEHFVKSISCQICEHILADPVETNCKHVFCRVCILRCLKVMGSYCPSCRYPCFPTDLES (RAG1 RING domain (UniProt P15918))	0
RLTMMWEEVTCPICLDPFVEPVSIECGHSFCQECISQVGKGGGSVCPVCRQRFLLKNLRP (TRIM21 RING domain (UniProt P19474))	0
B2 (CUL9 RING domain)	0

Set 2
Target: PABPC1L2, full length, GST fusion (mouse, UniProt A0ABA7IW68)
Technique: RNAcompete
Form: RNA
Sample: in vitro
Concentration: 20 nM
Notes: 7-mer, probes averaged, single round
Baseline: mean of 7-mers
Direction: higher = stronger binding
Construct (chain): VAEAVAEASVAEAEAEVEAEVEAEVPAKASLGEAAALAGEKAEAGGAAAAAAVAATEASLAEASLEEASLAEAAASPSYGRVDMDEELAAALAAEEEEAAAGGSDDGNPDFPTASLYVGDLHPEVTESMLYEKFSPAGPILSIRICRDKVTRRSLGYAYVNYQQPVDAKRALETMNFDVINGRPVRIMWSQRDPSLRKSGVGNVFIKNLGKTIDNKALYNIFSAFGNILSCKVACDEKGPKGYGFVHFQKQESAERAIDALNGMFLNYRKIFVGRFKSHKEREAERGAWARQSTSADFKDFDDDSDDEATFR
Sequence	7-mer Z-score
AAUGGUG	0.142
UUGGCGG	0.00436
GAGGACU	0.0587
GGGGCGG	0.329
ACAUCAC	-0.0899
CGCCUUC	-0.507
UACCGCC	-0.335
GUGCACA	-0.0881

Set 3
Target: Protein max, full length (MAX, Homo sapiens, UniProt P61244-2, residues 1-151)
Technique: protein-binding microarray
Form: double-stranded DNA, one strand shown
Sample: in vitro
Concentration: not given
Notes: k-mer, scored over probes, only values ≥0.25
Direction: higher = stronger binding
Sequence	E-score
GCGCGTGA	0.416
CACGCCTG	0.379
CGTGCGGC	0.378
CATGTGCG	0.486
CATGGCAG	0.361
ACACGTTC	0.364
TAGCACGA	0.293
AGCCCACG	0.335

Set 4
Target: CCNB1, cyclin fold, Cln2 fusion (human)
Technique: yeast growth competition, sequencing
Sample: yeast
Notes: strong parent motif
Baseline: not given
Direction: higher = stronger binding
Starting sequence: viral docking peptide; KGVKRKLFAEDSS; partner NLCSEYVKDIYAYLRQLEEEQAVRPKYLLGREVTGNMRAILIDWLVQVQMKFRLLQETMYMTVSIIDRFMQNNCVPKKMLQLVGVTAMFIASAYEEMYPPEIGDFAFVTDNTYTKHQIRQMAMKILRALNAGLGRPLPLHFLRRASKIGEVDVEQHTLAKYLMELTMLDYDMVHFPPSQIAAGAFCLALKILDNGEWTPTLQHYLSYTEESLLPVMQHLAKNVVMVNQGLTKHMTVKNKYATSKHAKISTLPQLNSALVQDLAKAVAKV
Substitution	normalised enrichment score
A9P	2.1
K4T	1.85
V3D	-0.0252
E10T	0.796
S12W	2.51
G2R	1.78
R5T	0.812
E10Y	0.4
K4I	4.25
A9I	2.05
K6G	0.682
D11S	1.65
E10P	0.858
K6Q	2.84
F8N	0.097
A9G	1.81

A few entries again (set 2):
Sequence	7-mer Z-score
GGGGCGG	0.329
GUGCACA	-0.0881
ACAUCAC	-0.0899
CGCCUUC	-0.507
UACCGCC	-0.335
